Experimental data of several laboratories.
Protocols differ between the studies behind these lines.
Cell line: NCI-H460

COc1cc(CCC[P+](c2ccccc2)(c2ccccc2)c2ccccc2)c(OC)c2c1OCO2.[I-]  GI50 (SRB): -5.74 log M
CC(C)N1CCC(NC2CCN(c3cccc(-c4cc5cc(F)ccc5[nH]4)c3)CC2)CC1  CC50: 5050 nM
N.N.[Cl][Pt][Cl]  cell death (high-content imaging; 40 µM): 69%
Cn1cncc1C1=CN(c2ncnc3[nH]cnc23)CCS1  CC50 (lung cancer): > 200000 nM
Nc1ncc(-c2nc(N3CCOCC3)nc(N3CCOCC3)n2)c(C(F)F)n1  GI50 (72 h): 67 nM
COc1c(CCC[P+](c2ccccc2)(c2ccccc2)c2ccccc2)cc2c(c1OC)OCO2.[I-]  GI50 (SRB): -5.84 log M
CCN(CC)c1ccc(C=NNC(=O)CSc2nc3ccccc3c(=O)n2Cc2ccc(S(N)(=O)=O)cc2)c(O)c1  CC50 (NCI five-dose screen): > 100000 nM
COc1c(C)c2c(c(O)c1C/C=C(\C)CCC(=O)O)C(=O)OC2  IC50 (cell proliferation; lung cancer): 288 nM

For quick reference, copied from above:
CC(C)N1CCC(NC2CCN(c3cccc(-c4cc5cc(F)ccc5[nH]4)c3)CC2)CC1  CC50: 5050 nM
